Results from different studies.
Each line is one published result; not all experiments were run side by side. ± marks the error that the study gave.
Cell line: A2780

CC(C)(C)c1nc(-c2cccc(NS(=O)(=O)c3c(F)cccc3F)c2F)c(-c2ccnc(N)n2)s1 — result for “early apoptotic cells”: 32.8 ± 5.5% (annexin V/PI flow cytometry; concentration not given, 48 h; relative to: control subtracted).
C[C@@H]1CC[C@@H]([C@@](O)(CNCc2ccccc2)COCc2ccccc2)[C@H](OCc2ccccc2)C1 has an IC50 of 3.26 µM (cell growth, inhibitor, MTT; 72 h).
With CCn1cc(-c2cc(Cn3ccnc3)cc3c2CCN([C@H](c2cc(OC)ccn2)C2CC2)C3=O)c(C(F)(F)F)n1 the EC50 was 0.143 µM (cell growth, inhibitor; 120 h).
COc1cccc2c1C(=O)c1c(O)c3c(c(O)c1C2=O)C[C@@](O)(C(=O)CO)C[C@@H]3O[C@H]1C[C@H](N)[C@H](O)[C@H](C)O1 has an IC50 of 0.01 µM (cytotoxicity, WST-1; 72 h).
[Fe+2].c1cc[cH-]c1.c1cc[cH-]c1 has an IC50 of > 100 µM (viability, MTT; 48 h).
Cc1[nH]c2ccccc2c1CCNCc1ccc(/C=C/C(=O)NO)cc1 — result for “late apoptotic cells”: 2.6 ± 0.6% (annexin V/PI flow cytometry; concentration not given, 48 h; relative to: control subtracted).
COc1ccccc1CNC[C@@](C)(O)[C@@H]1CC[C@@H](C)C[C@H]1OCc1ccccc1 gave an IC50 of 7.39 µM (cell growth, inhibitor, MTT; 72 h).
With Nc1ccccc1NC(=O)c1ccc(CNC(=O)OCc2cccnc2)cc1 the apoptotic cells was ~60% (flow cytometry, measured: subG1 nuclei; concentration not given).

Excerpt of the above:
Cc1[nH]c2ccccc2c1CCNCc1ccc(/C=C/C(=O)NO)cc1 — result for “late apoptotic cells”: 2.6 ± 0.6% (annexin V/PI flow cytometry; concentration not given, 48 h; relative to: control subtracted).
